Published values pooled from the literature.
Protocols differ between the studies behind these lines. ± marks the error that the study gave.

`O=C(N/N=C/c1ccc(C[n+]2ccccc2)cc1)c1cccc(C(=O)N/N=C/c2ccc(C[n+]3ccccc3)cc2)c1` gave a ΔTm of -0.2 ± 0.2 °C (hp2 hairpin duplex DNA; FRET melting; 1 µM, added: ds26 10 µM).
For `CO[C@@H]1[C@@H](OC(N)=O)[C@@H](O)[C@H](Oc2ccc3c(O)c(NC(=O)c4ccc(O)c(CC=C(C)C)c4)c(=O)oc3c2C)OC1(C)C`, the colony count was 28.5 (HCT-116 BRCA2-/-; 50 µM, replicate 2).
Under “log2 fold change”, `CN1CCCNC(=O)c2cccc(c2)C(=O)NCCCN(C)CCCNc2cccc3c2C(=O)c2cccc(c2C3=O)NCCC1` is recorded as 0.563 (SAS; RNA-Seq, measured: CHTF8 mRNA; 1 µM, 6 h; relative to: untreated cells).
`CCN(C(=O)c1cc(F)ccc1Oc1nncnc1N1CCC2(C1)CN([C@H](CCCN(C)CCOC)C(C)C)C2)C(C)C` gave a GI50 of over 10000 nM (SU-DHL-6; cell growth or viability; 72 h).
For `C[n+]1cccc2cc(/C=N/NC(=O)C(=O)N/N=C/c3ccc4c(ccc[n+]4C)c3)ccc21`, the ΔTm was 0.6 ± 0.3 °C (hp2 hairpin duplex DNA; FRET melting; 1 µM, added: ds26 10 µM).
With `COc1ccccc1-c1ccncc1C(=O)Nc1nnc(OCc2ccc(Cl)cc2)s1` the colony survival was 0% (PEO1 BRCA2-mutant; 0.5 µM, added: olaparib 1 µM).
`Cc1ncsc1-c1ccc(C(C)NC(=O)C2CC(O)CN2C(=O)C(NC(=O)CCCCCCCCCCN2CCCC(Nc3ncc(Cl)c(Nc4ccccc4S(=O)(=O)C(C)C)n3)C2)C(C)(C)C)cc1` (centres unmarked): “log2 fold change” -1.28 (22Rv1; RNA-seq, measured: LRIG2 mRNA; concentration not given; relative to: DMSO).
`CNS(=O)(=O)Nc1nccc(Cc2c(C)c3ccc(Oc4ncccc4F)cc3oc2=O)c1F` gave an IC50 of over 1000 nM (JAR; cell viability; 7 days).
`COC1CN([C@H]2CC[C@H]([C@@]3(C)Oc4c(Cl)cc(C(=O)NCc5c(SC)cc(C)[nH]c5=O)c(C)c4O3)CC2)C1` — result for “log2 fold change”: 1.41 (RNA-seq, measured: DAB2IP; human, whole blood; dose not given, 24 h; relative to: pretreatment baseline).
With `CC(C)(C)c1cc(-c2ccc3cccnc3n2)nc(-c2ccc3cccnc3n2)c1.COc1ccncc1.[Cl-].[Cl-].[Ru+2].c1ccc2cc3nc4c5cccnc5c5ncccc5c4nc3cc2c1` the EC50 was 867 nM (A-375; photocytotoxicity, resazurin; visible light 400-700 nm, 20 mW, 100 J/cm2).
The fold regulation of `CCN(CC)CC(=O)Nc1cccc(-n2cc(-c3ccc4ccc(-c5cn(-c6cccc(NC(=O)CN(CC)CC)c6)nn5)cc4c3)nn2)c1` is reported as -1.69 (RCC4; PCR angiogenesis array, measured: IL1B; 5 x IC50, 2 h, normoxia; relative to: untreated).

Repeated from above:
For `C[n+]1cccc2cc(/C=N/NC(=O)C(=O)N/N=C/c3ccc4c(ccc[n+]4C)c3)ccc21`, the ΔTm was 0.6 ± 0.3 °C (hp2 hairpin duplex DNA; FRET melting; 1 µM, added: ds26 10 µM).
